Assay results pooled from the literature.
Protocols differ between the studies behind these lines. “And” joins repeats or separate records; there may be more than shown.

CC1(C)CC[C@]2(NC(=O)C(C)(F)F)CC[C@]3(C)[C@H](C(=O)C=C4[C@@]5(C)C=C(C#N)C(=O)C(C)(C)[C@@H]5CC[C@]43C)[C@@H]2C1: “trough plasma concentration” 37.7 ng/mL (human, plasma; oral, 150 mg, day 23 predose, mean).
Cc1nc2cccc(OCC(C)(C)C(=O)NC(C)C)c2c(N)c1C(=O)O: “micronucleated NCE per 2000 PCE” 0.9 (male Swiss albino CD-1 mouse, bone marrow; oral, 1000 mg/kg, 48 h).
For O=C(Nc1ccc(OC(F)(F)Cl)cc1)c1cnc(N2CC[C@@H](O)C2)c(-c2ccn[nH]2)c1, “grade ≥3 event rate” read 4.4% (per laboratory record, refers to: platelet decrease; human patients; oral, dose not given, dose-finding study).
COc1ccc2c(=O)n(C)c(-c3ccccc3)nc2c1 has a tissue/plasma ratio of 39.8 (Sprague-Dawley rat, male, liver; oral, 30 mg/kg, 0.5 h; relative to: liver over plasma).
CCN1CCN(Cc2ccc(Nc3ncc(F)c(-c4cc(F)c5nc6n(c5c4)[C@H](C)CCC6)n3)nc2)CC1 gave a CL/F of 33.7 L/h (human, plasma; 400 mg single dose, mean).
C[C@@]1(c2cc(NC(=O)c3ccc(C#N)cn3)ccc2F)C=CSC(N)=N1 has a dose-normalised Cmax of 4.93 ng/mL (elderly humans, both sexes, plasma; oral, 30 mg single dose).
Cn1cc(Nc2nccc(-c3ccc4c(c3)CN(C3COC3)CC[C@H]4NC(=O)c3cn(C(C)(C)C)nn3)n2)cn1 — result for “percent change from baseline”: 6.1% (refers to: naive B cell count; human, clinical trial, whole blood; 50 mg twice daily, follow-up).
For CC(C)c1nc(CN(C)C(=O)N[C@@H](CCN2CCOCC2)C(=O)N[C@H](CC[C@H](Cc2ccccc2)NC(=O)OCc2cncs2)Cc2ccccc2)cs1, the serious TEAE was 0% (human; oral, 150 mg, drug interaction trial).
Under “subjects with adverse event”, CC(C)c1nc(N(C)S(C)(=O)=O)nc(-c2ccc(F)cc2)c1/C=C/[C@@H](O)C[C@@H](O)CC(=O)O is recorded as 9.1% (refers to: general and administration site disorders; healthy men; oral, dose not given, 8 days, treatment-emergent, crossover trial).
With Cc1nc(-c2ccc(OCC(C)C)c(C#N)c2)sc1C(=O)O the body weight was 38.1 g and 35.9 g and 44.6 g and 34.4 g and 41.2 g and 40.1 g (KM mouse, chronic hyperuricaemia model; dose not given, day 27).
C=CC(=O)N(C)CCOc1c(N)ncnc1-c1cc(F)cc(NC(=O)c2ccc(C3CC3)cc2F)c1C has a Cmax of 8.4 ng/mL (human, whole blood; oral, 10 mg once daily, day 1).
With COc1ncc(-c2nc3c(n2C(C)C)[C@H](c2ccc(Cl)cc2)N(c2cc(Cl)cn(C)c2=O)C3=O)c(OC)n1 the AUC(0-last) was 987 ng·h/mL (LC-MS/MS; human, plasma; oral, 30 mg, cycle 1 day 8, low-dose arm).
For NC1(C(=O)N[C@@H](CCO)c2ccc(Cl)cc2)CCN(c2nc[nH]c3nccc2-3)CC1, “incidence of Erythema” read 6.7% (metastatic CRPC patients; dose not given, any grade, treatment-related, all doses, together with: enzalutamide 160 mg daily).
For CNC(=O)c1ccc(-c2cnc3ncc(Cc4ccc5ncccc5c4)n3n2)cc1F, “patients with adverse event” read 9% (refers to: Asthenia, all grades; hepatocellular carcinoma patients; oral, 600 mg twice daily, expansion cohort, any causality).
With Cc1cc(Nc2ncc(Cl)c(Nc3ccccc3S(=O)(=O)C(C)C)n2)c(OC(C)C)cc1C1CCNCC1 the dose-adjusted solubility was 1.12e-05 mL⁻¹ (FaSSIF; literature solubility over dose).
For C=CC(=O)Nc1cc(Nc2nccc(Nc3cc(Cl)c(F)cc3C(C)(C)O)n2)c(OC)cc1N1CC[C@@H](N(C)C)C1, the intercompartmental clearance was 0.42 L/h (two-compartment PK model; mouse).
CC(C)(C(=O)N1CCOc2c(C#N)cncc2C1)C(F)F: “subjects with TEAE” 0% (refers to: vessel puncture site haemorrhage; human, both sexes; oral, 15 mg twice daily, 14 days, multiple ascending dose).

A few entries again:
CC(C)(C(=O)N1CCOc2c(C#N)cncc2C1)C(F)F: “subjects with TEAE” 0% (refers to: vessel puncture site haemorrhage; human, both sexes; oral, 15 mg twice daily, 14 days, multiple ascending dose).
Cc1nc2cccc(OCC(C)(C)C(=O)NC(C)C)c2c(N)c1C(=O)O: “micronucleated NCE per 2000 PCE” 0.9 (male Swiss albino CD-1 mouse, bone marrow; oral, 1000 mg/kg, 48 h).
